Results of several laboratories.
Each numbered part is a random draw from the data of one study; scales do not carry over between parts.

Sample 1
Target: Sal-like protein 4, full length isoform B (SALL4, Homo sapiens, UniProt Q9UJQ4-2, residues 1-616)
Method: universal PBM
Form: double-stranded DNA, one strand shown
Matrix: in vitro
Concentration: not given
Notes: 8-mer, flanks averaged, mean of replicates
Reading: higher = stronger binding
Measurement: E-score
GAGGCATA: 0.0907
ACGTCCTG: -0.216
ATTGAATC: 0.213
AATGCTTC: 0.0958
GCTCCGGA: -0.21
GAAGGATA: 0.0414
AGAAGGAC: -0.175
TCGTCCCA: -0.0754
GCAGATTA: 0.13
GTGGATCA: -0.0859
CTGCACGA: -0.128
CTCCTCTC: -0.144
CTGGGCGC: -0.334
AATTTATG: 0.393
CGGACGCA: -0.275
CAGTTTGG: -0.096
AACCGAGT: -0.193
CTAACTCC: -0.209
ATGTTTGC: 0.105
ATTCGGCA: -0.0525
ACAGGAAG: -0.0388
CGTGTAAA: 0.0508
ATAAATTA: 0.417

Sample 2
Target: Interferon regulatory factor 5, full length, phosphomimetic (IRF5, Homo sapiens, UniProt Q13568-2, residues 1-514, S451D/S453D/S456D/S462D)
Method: protein-binding microarray
Form: double-stranded DNA, one strand shown
Matrix: in vitro
Concentration: 940 nM top
Notes: 60-bp whole probe
Together with: salmon DNA 0.4 mg/ml
Reference: random background probes
Reading: higher = stronger binding
Measurement: fitted relative affinity
Shared flanks, not repeated: GCCTAGCAC … GTCTTGATTCGCTTGACGCTGCTG
TTAAGTATCCTACTGCTTTAGTGCTAG: 0.0841 z-score
CCCACCTCTCACGGGCTTGTGTGCTAG: 0.364 z-score
GACGATCTCATTATCGAGACGTGCTAG: 0.557 z-score
GACGTTCTCCTTATCCTGACGTGCTAG: 1.22 z-score
TTAGGTATCGGGTATCCGTTAGTGCTA: 6.87 z-score
TCATCATTGCATATAGAACTGTGCTAG: 0.13 z-score
GACGGTATCGACTATCGGAACGTGCTA: 5.09 z-score
TCATGCTTTCTTTTTGCACTGTGCTAG: 1.33 z-score
GACGACCTGAGACTGGAGACGTGCTAG: -0.437 z-score
GACGGTCGCCTTATCCTGACGTGCTAG: -0.0753 z-score
TCAAAATTAGTGTTTGCCACTGTGCTA: -0.322 z-score
TCACCAATCATTTTTGCACTGTGCTAG: 0.0314 z-score
GACGGTTTCGACACTGGTGACGTGCTA: 7.11 z-score
TTAGATTTCAGTTTCTATTAGTGCTAG: 3.87 z-score
GACGGTTTCGGTCTCGGCACGTGCTAG: 13.9 z-score
TCAAGTTTCTCCTTTCGACTGTGCTAG: 3.67 z-score
GACGGCCTCCTACTGCTGACGTGCTAG: -0.259 z-score

Sample 3
Target: RNA binding protein fox-1 homolog 2, RRM domain, GST-SBP tag (RBFOX2, Homo sapiens, UniProt O43251-10, residues 100-194)
Method: RNA Bind-n-Seq
Form: RNA
Matrix: in vitro
Concentration: 365 nM
Notes: natural RNA segment, single round, ends assumed
Reference: no-protein control
Reading: higher = stronger binding
Measurement: RBNS enrichment (R)
Shared flanks, not repeated: GGGAGUUCUACAGUCCGACGAUC … UGGAAUUCUCGGGUGCCAA
Residues (chain): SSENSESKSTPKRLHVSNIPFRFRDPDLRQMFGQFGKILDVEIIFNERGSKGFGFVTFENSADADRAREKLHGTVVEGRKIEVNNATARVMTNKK
AAGCCUUCUUCCUUUGCUUCAGGCAGCUGUCACCUUCUCUUUAUUGGUGGUCCUAAGUGGGUCACUUAAGAAAAAAAAGUGUAACAAAUUCUCGCUCCAUGAACCUGGUU: 0.263
GUACAACUCUUAAGAAAGCCAUACUUAAUGGUGAUGUUAUUUUUUAGAUCCUAUUGUGAUUUGUAUGUGGCUCUUUUAGAAUCACUUGUAGUGAGGGUGCUGUGUGUGCU: 1.47
GAUUUUUUUUUAUUAUUUCAUAAGAAAACUACGUUAAUUUUACCUUACUUUCAUUGUAAAUAAGCCUGUCUUCCUAUCUGGAUUUUUUGUGUGCAUACAUAUUCUACUGA: 1
AUGGCCUACAUAGGUACUCCCCCCUACCCCUAGGAUGCAGAGAGACGGGAACACGCCGGAGGGUAGAGCUGGGGAGAACCCAUUCUUCCUUGGAAGGAUCCGCUGAAGGU: 0.833
UAGUGUAAGGCUGCAUUGUGGGUUUGGGGGAAAUGUAAAUAAUUUUCUGUGUAAAACAAAUUCAUAGGAUCUGAUUUGCUCAGAGUAUUAUUCAAGAAUGUAUUAAUAAG: 1.52
ACCUCUCCUGAGUAGCUGGGACUACAGGUGCAUGACACCACACCCAGCUAAUUUUUGUAUUUUUAUAGAGAUGGAGUUUUGCCAUGUUGGCCAGCCUGGUCUUGAACUCU: 0.631
UGGUGAACGCCUGGGACCAAGCCAUGUGGCGUUUUUUAUUUUGCCUUUCUGGAAGACUCAAGAUAUGUCUCUUCAUUCUCUCUCAGUAUUUGUUUACUUUGGUUUUUUUG: 0.546
AGCUGAGGCUGAUCCAGCUCCCCUGAAAUUCAGAGUGUUAACUUUGUAGACCCUGCACAAUCUCUUGGUGCUAUCUAGCCAUUACCCCCAUUUUUUUUUUAAAGGCCAUC: 0.678
GCUGCUGUGAAACAGCUCUGAUGAACACUAAAUAUUAAUUUCAAUUAGCUAGAUUGUACAUACUUGCAGAUUUAACAAAAUUUUAGGGAAAUUGAAAAAGACAUGUAGAA: 0.684
AGCAGUCCAGUCUAUAGGUGCUCUACUUAGCAUUCUUUUCAUGUGCUCCUGGUCUCUGUCUCACUCACCUACUUUCUACUACAUCCAACUCAACUCCCUGACACCCUAUC: 1.32
GUGAUGUUAAUACAGGCUUCUUGUUUUAGGAAGCAUCACCUAUACUCUGAAGCCUUUAAACUCUGAAGAGAAUUGUUUCAGAGUUAUUCCAAGCACUUGUGCAACUUGGA: 1.2
UCAGGCCGGGCGGCCAGCCUUGCACUACUGACCACGAUGAUGCCAGGCUGGGCGGCCAGCCUUGCACUAUGUCCCAGCCCCACUACUGAACACUACUGACUUAGACUGCU: 0.257

Sample 4
Target: Histone acetyltransferase KAT6A, both winged helices, GST fusion (KAT6A, Homo sapiens, UniProt Q92794, residues 1-181)
Method: protein binding microarray
Form: double-stranded DNA, one strand shown
Matrix: in vitro
Concentration: not given
Notes: 8-mer, flanks averaged, mean of 2 arrays, mostly near background
Reference: not given
Reading: higher = stronger binding
Measurement: E-score
Target sequence (chain): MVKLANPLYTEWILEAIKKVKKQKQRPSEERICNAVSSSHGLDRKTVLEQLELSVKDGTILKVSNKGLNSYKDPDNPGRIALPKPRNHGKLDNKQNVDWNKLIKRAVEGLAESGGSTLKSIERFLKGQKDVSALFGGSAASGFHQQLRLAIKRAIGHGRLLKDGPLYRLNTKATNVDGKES
CAGTGTAA: -0.114
CTGATTCC: -0.062
AGGCACCA: -0.105
CGCAAGAA: 0.213
ACATTGCC: 0.0422
TACCGGTA: 0.308
CCTGGCCG: 0.0222
CAGCCTCA: -0.265
GATTAGCC: 0.0745
GTAAACAC: 0.0851
CGACATGC: 0.0825
AGACAAAA: -0.0913
AAGACCTC: -0.053
CAACGACA: -0.0177
ATCTAAAA: -0.184
GTAGTTTA: -0.0194
TCTCTACA: -0.309
GCTACTTA: -0.148
AGCCTTCA: -0.0956
ACCGCAGA: 0.112
GGGGACCA: -0.148
AATTCAAG: -0.123
ACGACTAT: -0.0204
ATCGTTAA: -0.0305

For quick reference, copied from above (sample 4):
CAGCCTCA: -0.265
GATTAGCC: 0.0745
GTAAACAC: 0.0851
CGACATGC: 0.0825
AGACAAAA: -0.0913
AAGACCTC: -0.053
CAACGACA: -0.0177
ATCTAAAA: -0.184
GTAGTTTA: -0.0194
TCTCTACA: -0.309
GCTACTTA: -0.148
AGCCTTCA: -0.0956
